Experimental data pooled from the literature.
Numbered parts are unrelated; each lists some results of a single study. Changes are numbered by the printed parent chain.

Study 1 — method: DHFR PCA, deep sequencing; medium: yeast; together with: (+)-ABA 2500 µM; baseline: wild-type fitted maximum; direction: higher = stronger binding; quantity: relative binding score
Target: ABI1, truncated, D143A, DHFR fusion (Arabidopsis thaliana)
Setting: methotrexate growth selection, single substitutions
Parent: PYL1, truncated, DHFR fusion (Arabidopsis thaliana); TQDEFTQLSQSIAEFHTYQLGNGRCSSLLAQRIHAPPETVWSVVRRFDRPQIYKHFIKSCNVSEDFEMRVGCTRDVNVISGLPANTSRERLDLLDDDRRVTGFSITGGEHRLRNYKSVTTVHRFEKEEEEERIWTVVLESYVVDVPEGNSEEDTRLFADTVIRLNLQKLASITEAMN; partner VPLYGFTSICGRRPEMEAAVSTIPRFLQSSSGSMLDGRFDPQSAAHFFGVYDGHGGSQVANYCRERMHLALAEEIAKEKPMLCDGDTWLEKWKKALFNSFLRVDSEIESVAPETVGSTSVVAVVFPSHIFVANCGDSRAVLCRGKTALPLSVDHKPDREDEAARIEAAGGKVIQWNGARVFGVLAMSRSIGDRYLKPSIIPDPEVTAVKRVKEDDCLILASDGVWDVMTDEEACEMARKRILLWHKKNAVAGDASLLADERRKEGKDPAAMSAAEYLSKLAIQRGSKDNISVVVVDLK
V121F: 23%
R132W: 95.1%
W134T: 108%
D153C: 80.3%
V136Y: 106%
R113K: 109%
R46D: 82.7%

Study 2 — method: Sort-seq; refers to: YFP reporter; medium: E. coli; setting: PhoQ-PhoP variant library; together with: 10 µM Mg2+; baseline: high Mg2+ state; direction: higher = stronger signaling; quantity: fold induction
Substance: PhoQ, residues 284 288 289 292 302 303 TTCLQL
PhoP, residues 12 14 15 18 19 TQCLL (Escherichia coli, UniProt P23836): 24.7
PhoP, residues 12 14 15 18 19 ICWRQ (Escherichia coli, UniProt P23836): 5.48
PhoP, residues 12 14 15 18 19 VHTVL (Escherichia coli, UniProt P23836): 3.36

Study 3 — method: protein-binding microarray; form: double-stranded DNA, one strand shown; medium: in vitro; tested at: 250 nM; setting: 60-bp whole probe; together with: salmon DNA 0.4 mg/ml; baseline: random background probes; direction: higher = stronger binding; quantity: log fluorescence; constant ends, left off below: GCCTAGCAC … GTCTTGATTCGCTTGACGCTGCTG
Target: Interferon regulatory factor 7, full length, phosphomimetic (IRF7, Homo sapiens, UniProt Q92985, residues 1-503, S101K/S471D/S472D/S475D/S476D/S477D/S483D/S484D/S487D)
Chain of UniProt Q92985 (whole entry, unmodified, looked up): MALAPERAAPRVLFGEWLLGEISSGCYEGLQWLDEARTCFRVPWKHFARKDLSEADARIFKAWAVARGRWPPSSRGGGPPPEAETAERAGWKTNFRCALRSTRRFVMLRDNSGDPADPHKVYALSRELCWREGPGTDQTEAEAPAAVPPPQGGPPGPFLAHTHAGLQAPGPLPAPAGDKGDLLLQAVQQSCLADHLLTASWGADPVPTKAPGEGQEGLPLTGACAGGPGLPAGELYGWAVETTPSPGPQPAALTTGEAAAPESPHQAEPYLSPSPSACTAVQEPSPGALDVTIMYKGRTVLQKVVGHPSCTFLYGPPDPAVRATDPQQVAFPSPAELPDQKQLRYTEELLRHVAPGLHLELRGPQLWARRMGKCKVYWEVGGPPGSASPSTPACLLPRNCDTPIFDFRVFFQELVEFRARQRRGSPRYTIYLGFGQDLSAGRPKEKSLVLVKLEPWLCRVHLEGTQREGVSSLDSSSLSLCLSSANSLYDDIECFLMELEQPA
TTTTTTTCATATATATATGAGTGCTAG: 1.4 z-score
GACGGACTGCTTCTCCAGACGTGCTAG: -0.435 z-score
CTGTTTTTCCCCTGCACTCAGTGCTAG: 2.56 z-score
TTAGATTTCGGACTGGATTAGTGCTAG: 0.417 z-score
TCAACTCTCAGAATCTCACTGTGCTAG: 0.405 z-score
GACGGTCACGGTATCGGGACGTGCTAG: 0.275 z-score
GACGGTTTCGGTTCCGGGGCGTGCTAG: 11.9 z-score
CATGAATCAGGCATAGCATGGTGCTAG: -0.136 z-score
TTTCGTTACTTCCTCAAACAGTGCTAG: 4.82 z-score
GGTGGTCTGGGACCCTCCCCGTGCTAG: -0.542 z-score
GACGAACTGAGCCTGGAGACGTGCTAG: -0.25 z-score
TTAGGTCTCGGTCTCGGTCAGTGCTAG: 1.21 z-score
GACGATCTCAGACTGGAGAAGTGCTAG: -0.336 z-score
GACTGTTTCGACTTTCGGGACGTGCTA: 5.37 z-score
GGGATTTTTAGTTAGAAAAAGTGCTAG: -0.0935 z-score
TTAGGACTGGGTGTCGGTTAGTGCTAG: -0.348 z-score
TTCCCTTTCTCAACCTCCAGGTGCTAG: 3.14 z-score

Study 4 — method: universal PBM; form: double-stranded DNA, one strand shown; medium: in vitro; tested at: not given; direction: higher = stronger binding; quantity: E-score
Target: Sal-like protein 4, full length isoform B (SALL4, Homo sapiens, UniProt Q9UJQ4-2, residues 1-616)
Setting: 8-mer, flanks averaged, mean of replicates
CGGCAATA: 0.139
CCCAGCAC: -0.347
ACCAGCCT: -0.18
AGCCGTAC: -0.12
GGCATCCA: -0.0971
AGCGCATA: 0.186
GTACAAGA: 0.126
GGAAGCCA: -0.171
AACCCATT: 0.0472
AGGATAGA: 0.0505
CAGCGTGC: -0.291
GCGAATCC: -0.151
ACCGTTCA: -0.0694
CCACATCC: -0.135
AAGTGGGC: -0.102
CATCGAGA: -0.0319

Some of these lines once more (study 4):
GGAAGCCA: -0.171
AACCCATT: 0.0472
AGGATAGA: 0.0505
